Assay results collected from several papers.
A part holds a random share of what one study measured.

Set 1
Target: Interferon regulatory factor 5, full length, phosphomimetic (IRF5, Homo sapiens, UniProt Q13568-2, residues 1-514, S451D/S453D/S456D/S462D)
Method: protein-binding microarray
Form: double-stranded DNA, one strand shown
Medium: in vitro
Tested at: 940 nM top
Notes: 60-bp whole probe
Together with: salmon DNA 0.4 mg/ml
Baseline: random background probes
Direction: higher = stronger binding
All sequences stand within: GCCTAGCAC … GTCTTGATTCGCTTGACGCTGCTG
Oligonucleotide	fitted relative affinity
TCTAATTAGAATTTAAAACAGTGCTAG	-0.281 z-score
TACGATTCCAGTTTCGAGACGTGCTAG	3.6 z-score
TTAGATTTCGGGTTTCGTTTAGTGCTA	4.49 z-score
GACGGTATCGGTATCGGTACGTGCTAG	9.91 z-score
TCATAGTTGTGTCTTGCACTGTGCTAG	-0.0773 z-score
GACGGTTTCGGTTCCGGGAAGTGCTAG	13.8 z-score
GACGAACTGGACTATCGGGACGTGCTA	-0.149 z-score
GACGGTCTCCTTATCCTCACGTGCTAG	0.361 z-score
TGGTGCTTAGTATTTTTTTCCGTGCTA	0.159 z-score
GCCCCTTTCCTTTGCCTCTGGTGCTAG	1.01 z-score
TTTTTTTTTACTTCGGGTGAGTGCTAG	1.1 z-score
TTAGGTATCGACTACCGGTTAGTGCTA	6.67 z-score
GACCATTTCGGGACTGGAGACGTGCTA	-0.126 z-score
GACGGTTTCGACACTGGGGTCGTGCTA	7.99 z-score
GACGGTTTCGGCCTGGGGACGTGCTAG	8.77 z-score
GTCACTCTCAGAATCTCTCAGTGCTAG	1.68 z-score
TCATGGCTGACTTTGGAACTGTGCTAG	-0.28 z-score
GACGGTATCGGGTTTCGGGAAGTGCTA	5.87 z-score
TTAGGTTTCGGGACTGAGTTAGTGCTA	7.9 z-score
CTAGGTTTCGACACTGGGTTAGTGCTA	6.98 z-score
GACAGTTTCCTTCTCCTGACGTGCTAG	2.9 z-score

Set 2
Target: Histone acetyltransferase KAT6A, winged helix 2, GST fusion (KAT6A, Homo sapiens, UniProt Q92794, residues 85-181)
Method: protein binding microarray
Form: double-stranded DNA, one strand shown
Medium: in vitro
Tested at: not given
Notes: 8-mer, flanks averaged, mean of 2 arrays, mostly near background
Baseline: not given
Direction: higher = stronger binding
Residues (chain): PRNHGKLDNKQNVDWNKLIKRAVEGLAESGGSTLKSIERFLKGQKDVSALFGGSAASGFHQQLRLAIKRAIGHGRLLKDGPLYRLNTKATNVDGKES
Oligonucleotide	E-score
AAAAGGAG	0.00594
ACCGTACT	-0.175
CAAGGATC	-0.0451
ACATCATA	0.0895
GCTCTCAC	-0.125
CACCGCGA	-0.0327
CGCGGAGC	0.153
ACGTGTTC	-0.174
GTACAAAA	-0.0799
ACTCTTTA	-0.111
GGCACCAA	0.0665
ACACGGGC	0.0547
AACTTCAT	-0.0419
AGGCAACC	0.0583
GACGAAAA	0.16
CAGGGAGC	-0.0209
AAGGGTTA	-0.155

Set 3
Target: Centromere-binding protein 1, full length, N-terminal tag (CBF1, Saccharomyces cerevisiae, UniProt P17106, residues 1-351)
UniProt P17106, sequence (whole entry, looked up): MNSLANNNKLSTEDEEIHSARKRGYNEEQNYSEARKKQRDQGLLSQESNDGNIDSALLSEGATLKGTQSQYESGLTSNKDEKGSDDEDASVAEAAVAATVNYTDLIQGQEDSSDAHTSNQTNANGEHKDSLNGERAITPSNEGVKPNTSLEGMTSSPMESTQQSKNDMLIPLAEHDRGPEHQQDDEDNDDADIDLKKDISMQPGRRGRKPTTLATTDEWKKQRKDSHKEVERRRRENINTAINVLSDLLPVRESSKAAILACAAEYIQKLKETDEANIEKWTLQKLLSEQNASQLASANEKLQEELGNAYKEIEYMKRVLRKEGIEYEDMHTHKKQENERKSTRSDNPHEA
Method: protein-binding microarray
Form: double-stranded DNA, one strand shown
Medium: in vitro
Tested at: 0.8 µM
Notes: whole 60-bp probe, no competitor
Direction: higher = stronger binding
Oligonucleotide	fluorescence intensity
CTATTCGTGGATGGTCATGCGTATTTAAAAACATTCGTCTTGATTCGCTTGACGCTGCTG	1130 a.u.
GAAACAACGTGCGTCCATGTGCAAGAACAAGTATAGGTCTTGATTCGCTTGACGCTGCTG	707 a.u.
GAAAGTATATAGCACCACGAGTGAGTTAAATTCTAGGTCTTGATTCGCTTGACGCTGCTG	586 a.u.
CTACGGCGGACGTGTCACCCGGACCGAAACAGATTCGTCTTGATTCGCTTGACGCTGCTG	480 a.u.
CTATACCTAATATATACCACCACCGTCAAGGGGTTCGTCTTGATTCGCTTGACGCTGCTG	497 a.u.
CTAGTAACTGCCGGTGGTGGTTTTCCTATTAGGTTCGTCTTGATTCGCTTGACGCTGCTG	499 a.u.
GAACAATGGAAAAGGAACATCACGTGAAGCGAATAGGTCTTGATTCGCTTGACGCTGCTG	12500 a.u.
GAACATTACTATTTTCATCAGGGCCAACAAAAATAGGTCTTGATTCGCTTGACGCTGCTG	546 a.u.
CTATAACGTTTTCATCACCACATGTTTTTTTTTTTCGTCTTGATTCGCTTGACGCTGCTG	966 a.u.
GAATAATACAAACCTCATGTGCATATATACATATAGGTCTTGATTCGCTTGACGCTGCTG	569 a.u.
GAAGTGTAGCCCCATGTGAGCAAGCCAAACAAGTAGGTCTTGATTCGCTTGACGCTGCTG	789 a.u.
GAATGACATCATTCTCATCAGACATACAGAAACTAGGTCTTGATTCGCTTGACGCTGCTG	533 a.u.
CTATCTCAGATGACTCAGGTGTGCTCTTTTCAATTCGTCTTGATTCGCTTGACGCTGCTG	555 a.u.
GAAGGTATTAGCATGCACGTTTTCTTTCCTTTGTAGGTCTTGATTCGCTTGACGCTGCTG	783 a.u.
CTATCTTTCCACAAACGCACCACGTTGAGAGTGTTCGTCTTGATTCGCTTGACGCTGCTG	581 a.u.
GAAGGCTGCGTAGACCACGCAGAACTGTATATGTAGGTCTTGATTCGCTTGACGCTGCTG	498 a.u.
GAACTTCGTGAAACACGTGGGATACCGGTTAGGTAGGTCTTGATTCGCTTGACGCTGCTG	3850 a.u.
CTAACGGCATGTCAACAGGTGAGTGCCTTTTGATTCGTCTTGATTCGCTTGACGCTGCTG	479 a.u.
CTAATCAGCCACGGCCCCGTGTAAGCCGTAAAGTTCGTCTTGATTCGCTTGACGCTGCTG	540 a.u.
CTAGGTGGACGCCCCCACGAGTCAGTGTTTCTGTTCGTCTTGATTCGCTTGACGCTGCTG	486 a.u.
TGTACGAAGCTATATCAGACATATATAGTAGTTAGGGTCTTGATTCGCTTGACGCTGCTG	506 a.u.
TGTACGAAGCTATGATACGTGCTTATAGTAGTTAGGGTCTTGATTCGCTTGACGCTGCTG	536 a.u.
CTATATATTATTCACCTCGGTCACCGCCTGTAATTCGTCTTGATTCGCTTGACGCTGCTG	526 a.u.
GAAGACCATTCATTACTCGTGCGGAACCAGTAATAGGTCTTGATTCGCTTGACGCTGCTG	541 a.u.
CTATATCGTGCCGTCATCACCATCGATTTGAATTTCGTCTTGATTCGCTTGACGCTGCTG	540 a.u.

Set 4
Target: RNA binding protein fox-1 homolog 2, RRM domain, GST-SBP tag (RBFOX2, Homo sapiens, UniProt O43251-10, residues 100-194)
Method: RNA Bind-n-Seq
Form: RNA
Medium: in vitro
Tested at: 365 nM
Notes: natural RNA segment, single round, ends assumed
Baseline: no-protein control
Direction: higher = stronger binding
Target sequence (chain): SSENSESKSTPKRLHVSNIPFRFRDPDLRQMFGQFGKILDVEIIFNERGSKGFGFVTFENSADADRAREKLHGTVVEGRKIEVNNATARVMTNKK
Oligonucleotide	RBNS enrichment (R)
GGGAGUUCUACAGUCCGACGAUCGGGCUUAUUCUCAGCUAACCCUGGAAGGCUCUAGGGAGGGAGUCUUUUUCCUGAUCCUUGGUAUGACUUAGGAUUCAUUUGUGCAUUCACGAUAUUAACUCUCCAUGAAUUGGAAUUCUCGGGUGCCAA	0.613
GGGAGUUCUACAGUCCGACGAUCUAUGGCUAUGAAUCAGGAAAGAGAUUAGAACAUUUAAUAAUGUAUGUACAGCUGGUGCUUAGUUUUUUUUUAAUCUAAAUUUAAUUACCUUAUUGGAUAUUUGAUAUUUGUGGAAUUCUCGGGUGCCAA	1.13
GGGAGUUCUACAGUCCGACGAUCCAGGACGCCGACCCUGCCUGGACGGCCCCGCCUGGACCGCCUGACCUCGGCCCUCCGGACCCGGCUGCGGCCCCCGCCUCCGAGACCAAAUAGAGACGCUGCUUCUCCCUUGGAAUUCUCGGGUGCCAA	0.157
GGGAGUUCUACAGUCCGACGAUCUGUUUUGUUUUCCUCCCUUUUCUCUUGAAUUUUAGCAUCCACAUAAAUUAUGCUUCCAACCUUGUAUAGGUUUGUAAGCUUGCCCAGAAGUGAGACCACUGUUGAAGUACUGGAAUUCUCGGGUGCCAA	0.433
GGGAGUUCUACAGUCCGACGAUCAGCUCGCUGGCCUCGCGCUGGGCGGCUGGGAAUUCCACCUGAGAACAAGUCCCGCAAACCGGGGACGGAAGGACAUUUGACUUUUAUUUUUGUAUUUAAUUGACAUGAAUUGGAAUUCUCGGGUGCCAA	0.634
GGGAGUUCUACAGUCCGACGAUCGAAAAGUUAAGAUAUCUGCUUACAUUGAUUUUGUAGACACAUUAAGUCAAGAUUUGGAAUUUAAGUCACUGGCAGGUAUCUGUGCAUUCAUAGAACUUAUAAAGGUCCCAUGGAAUUCUCGGGUGCCAA	0.522
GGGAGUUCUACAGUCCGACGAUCGCCUUACUUCCUGGAGACCCACCCUGGGGUACCCCACUGCAGGGGGGUACCCCCUUUGCACUUUGACCCUCCUGAUGACGUGGGGCCCAGCACAGGGACCAAGAAGGCUGUGGAAUUCUCGGGUGCCAA	2.13
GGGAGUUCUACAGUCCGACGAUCAGCACUUGUGCCUCAGCCCCUCACCUGGCCACCUGCCAGGGCACCUGCAACCCUAGCAAUACCAUGCUCGCUGGAGAGGCUCAGCUGCCUGCUUCUGGCCUGCCUGUGUCUGGAAUUCUCGGGUGCCAA	0.278
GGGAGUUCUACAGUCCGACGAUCAUUUCCAUCUGUCUGGUUAUGUCAAGUUAAUUCAGAAAGAGAAGAGACAGUGACCAACCCUGAGAGGCCUAAUAGGGCAGAGAUGGAGGCCUGCCCAGACUAGGAGGCAGUGGAAUUCUCGGGUGCCAA	0.439
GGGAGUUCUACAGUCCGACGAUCUCUGUGGGCUCGUAGUCCUCUGAAAGUGGUUGUUUUCCUAUGCACAGUGAGCUCAGAAAUAAAAACUCCAUUUUGAGACAUUCAGAAUGUCCCAACAUUACGACAACAUUUGGAAUUCUCGGGUGCCAA	0.317
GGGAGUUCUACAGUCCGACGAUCUAAGGGUAAUCUUCCUUCUCUGAUUACAGGAGCUGAAAUUUGACUUUUCUAACAGGCUCAGUCCUUACGAGCUUCUCAACACUGGUUCUUCUGUUAAGAGUGACUGUUCAUGGAAUUCUCGGGUGCCAA	0.243
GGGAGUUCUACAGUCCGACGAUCUUUGCAGCCCCCAGAGGACCUUGCCUGCAUAAAGCACUCAGAAGGGUUAGCCACCUGGUGAUUUUGUCUCUAGUGAAACUGUGUUUGCCGAUAAUCAUCCACAUAGCCACUGGAAUUCUCGGGUGCCAA	1.22

Excerpt of the above (set 1):
Oligonucleotide	fitted relative affinity
TGGTGCTTAGTATTTTTTTCCGTGCTA	0.159 z-score
GACCATTTCGGGACTGGAGACGTGCTA	-0.126 z-score
GACAGTTTCCTTCTCCTGACGTGCTAG	2.9 z-score
TTTTTTTTTACTTCGGGTGAGTGCTAG	1.1 z-score
TCATGGCTGACTTTGGAACTGTGCTAG	-0.28 z-score
